Measured values collected from several papers.
Protocols differ between the studies behind these lines. ± marks the error that the study gave.

| Structure (SMILES) | cell line | observed | technique | time | setting | IC50 [µM] |
| --- | --- | --- | --- | --- | --- | --- |
| O=C1NN=C(N=Cc2ccccc2O)C1=NNn1c(-c2ccccc2)nc2ccccc2c1=O | NIH 3T3 | cytotoxicity | MTT |  |  | 226 |
| C#Cc1cccc(Nc2ncnc3cc(OCCOC)c(OCCOC)cc23)c1 | BJ-1 | cytotoxicity | LDH release | 48 h |  | 84 ± 1.97 |
| O=c1[nH]cnc2c1ncn2[C@H]1CC[C@@H](CO)O1 | CEM-CCRF | cell growth | trypan blue exclusion | 6 d |  | > 100 |
| CC(=O)NCN1N=C(C)C(=NNn2c(-c3ccccc3)nc3ccccc3c2=O)C1=O | NIH 3T3 | cytotoxicity | MTT |  |  | 272 |
| CCCCCOC(=O)Nc1nc(=O)n([C@@H]2O[C@H](C)[C@@H](O)[C@H]2O)cc1F | NHDF |  | MTT | 72 h | 10% FBS | > 200 |
| C=C(C[C@@H]1CCOc2ccc(Br)cc21)c1ccccc1 | RAW264.7 | cytotoxicity | CCK-8 | 24 h |  | 57 |
| Cc1cn([C@H]2C=C[C@@H](CO)O2)c(=O)[nH]c1=O | CEM-CCRF | cell growth | trypan blue exclusion | 6 d |  | > 100 |
| CC1=NN(CNC(=O)c2ccccc2)C(=O)C1=NNn1c(-c2ccccc2)nc2ccccc2c1=O | NIH 3T3 | cytotoxicity | MTT |  |  | 171 |
| C=C(C[C@@H]1CCOc2ccc(C)cc21)c1ccccc1 | RAW264.7 | cytotoxicity | CCK-8 | 24 h |  | 155 |
| O=c1[nH]c(=O)n([C@H]2C[C@H](O)[C@@H](CO)O2)cc1I | CEM-CCRF | cell growth | trypan blue exclusion | 6 d |  | 2.7 |
| C=C(C[C@@H]1CCOc2ccccc21)c1ccc(Cl)cc1 | RAW264.7 | cytotoxicity | CCK-8 | 24 h |  | 94.9 |
| CC1=NN(CNc2ccc(O)cc2)C(=O)C1=NNn1c(-c2ccccc2)nc2ccccc2c1=O | NIH 3T3 | cytotoxicity | MTT |  |  | 62.1 |
| Cc1c(O)cc(C[C@]23C[C@H](C[C@H](C)O2)c2c4c(c(O)c(C)c2O3)CO[C@@]2(C4)C[C@@H](O)C[C@H](C)O2)c(C=O)c1O | A549 | cell growth or viability |  |  |  | 16.4 |
| C=C(C[C@@H]1CCOc2ccccc21)c1ccccc1C | RAW264.7 | cytotoxicity | CCK-8 | 24 h |  | 184 |
| N=C(N)c1cccc(OCCCCCCCOc2cccc(C(=N)N)c2)c1 | HeLa DM1 model | cytotoxicity | propidium iodide flow cytometry | 18 h | 50% cell death | 30 ± 4.9 |

Repeated from above:
| Structure (SMILES) | cell line | observed | technique | time | setting | IC50 [µM] |
| --- | --- | --- | --- | --- | --- | --- |
| O=c1[nH]cnc2c1ncn2[C@H]1CC[C@@H](CO)O1 | CEM-CCRF | cell growth | trypan blue exclusion | 6 d |  | > 100 |
| CC(=O)NCN1N=C(C)C(=NNn2c(-c3ccccc3)nc3ccccc3c2=O)C1=O | NIH 3T3 | cytotoxicity | MTT |  |  | 272 |
